Measured values collected from several papers.
Parts stem from different laboratories: compare values within a part only. Substitutions count along the parent as printed.

Block 1
Target: CCNA1, cyclin fold, Cln2 fusion (human)
Technique: yeast growth competition, sequencing
Medium: yeast
Setting: weak parent motif
Reference: not given
Reading: higher = stronger binding
Starting sequence: RB1 docking peptide (human); PKPLKKLRFDIEG
Change | normalised enrichment score
PKPLKFLRFDIEG [K6F] | 0.284
PKYLKKLRFDIEG [P3Y] | 0.38
PKPLKKLRFAIEG [D10A] | 0.491
PKPLWKLRFDIEG [K5W] | -0.0437
PAPLKKLRFDIEG [K2A] | 0.191
PKPLKKPRFDIEG [L7P] | 0.162
PKPLKKLRFDIFG [E12F] | 0.136
PKPLKKLRFDIEV [G13V] | 0.139
PKPLKKLWFDIEG [R8W] | 0.126
PKPYKKLRFDIEG [L4Y] | 0.569
PKPLKKLRFDILG [E12L] | 0.266
PKPLRKLRLDIEG [K5R F9L] | -0.052
RKPLKKLRFDIEG [P1R] | 0.307
PFPLKKLRFDIEG [K2F] | 0.192
PKQLKKLRFDIEG [P3Q] | 0.17
PKPLKKLRCDIEG [F9C] | 0.369
PKPLKKLRFDIEP [G13P] | 0.149
PKPLKNLRFDIEG [K6N] | 0.306
PKPLKKCRFDIEG [L7C] | 0.311
PKPLKKLRFDIQG [E12Q] | 0.243
PKPLKKLRNDIEG [F9N] | 0.884

Block 2
Target: Interferon regulatory factor 3, full length, phosphomimetic (IRF3, Homo sapiens, UniProt Q14653, residues 1-427, S386D/S396D/S398D/S402D/T404D/S405D)
Sequence of UniProt Q14653 (whole entry, unmodified, looked up): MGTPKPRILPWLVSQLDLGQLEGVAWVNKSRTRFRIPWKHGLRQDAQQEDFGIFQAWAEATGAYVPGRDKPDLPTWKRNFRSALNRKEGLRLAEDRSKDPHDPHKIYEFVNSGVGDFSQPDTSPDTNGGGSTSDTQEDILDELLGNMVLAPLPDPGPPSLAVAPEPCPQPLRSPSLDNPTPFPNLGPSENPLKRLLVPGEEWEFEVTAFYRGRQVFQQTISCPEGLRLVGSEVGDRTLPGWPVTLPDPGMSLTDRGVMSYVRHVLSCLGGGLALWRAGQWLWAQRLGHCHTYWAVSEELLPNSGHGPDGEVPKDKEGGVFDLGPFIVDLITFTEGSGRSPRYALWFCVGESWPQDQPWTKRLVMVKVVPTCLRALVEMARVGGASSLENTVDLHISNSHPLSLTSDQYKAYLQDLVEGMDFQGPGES
Technique: protein-binding microarray
Molecule type: double-stranded DNA, one strand shown
Medium: in vitro
Tested at: 2540 nM top
Setting: 60-bp whole probe
With: salmon DNA 0.4 mg/ml
Reference: random background probes
Reading: higher = stronger binding
Shared flanks, not repeated: GCCTAGCAC … GTCTTGATTCGCTTGACGCTGCTG
Strand | fitted relative affinity [z-score]
TCATGAACCATTTTGGTACTGTGCTAG | 1.19
TCACCTCTGTTTTGAGCACTGTGCTAG | 0.417
AGAAACTTGTATTTGTCCCTGTGCTAG | 0.618
GACGGTATCGCGTATCGGGACGTGCTA | 0.67
TTAGATGCCAGTTTCGATTAGTGCTAG | 3.37
GACGGTAACCTTTTCCTGACGTGCTAG | 2.48
GACGATTTCAGTTCCGAGAAGTGCTAG | 3.19
TCATCTCTTTCCTTCTTACTGTGCTAG | 5.9
TTAGGTCTAGGTTTCGGTTAGTGCTAG | 3.76
TTAGGTTTCGGGACTGTGTTAGTGCTA | 4.33
GACGGTTACGACACTGGGGACGTGCTA | -0.0325
GACGACTTCAGTCTCGAGACGTGCTAG | -0.0587
GACGATTTCAGTATTGAGACGTGCTAG | 2.02
GACGATTCCAGTTTCGAAACGTGCTAG | 4.58
TACGGTCTCCTTCTCCTGACGTGCTAG | 4.11
TTAGGACTGGGTTTCTGTTAGTGCTAG | 0.629
TTAGATATCGGTATCGATTAGTGCTAG | 2.35
TCAGTTTTGTGTCTGGGACTGTGCTAG | 1.12

Block 3
Target: Histone acetyltransferase KAT6A, both winged helices, GST fusion (KAT6A, Homo sapiens, UniProt Q92794, residues 1-181)
Technique: protein binding microarray
Molecule type: double-stranded DNA, one strand shown
Medium: in vitro
Tested at: not given
Setting: 8-mer, flanks averaged, mean of 2 arrays, mostly near background
Reference: not given
Reading: higher = stronger binding
Construct (chain): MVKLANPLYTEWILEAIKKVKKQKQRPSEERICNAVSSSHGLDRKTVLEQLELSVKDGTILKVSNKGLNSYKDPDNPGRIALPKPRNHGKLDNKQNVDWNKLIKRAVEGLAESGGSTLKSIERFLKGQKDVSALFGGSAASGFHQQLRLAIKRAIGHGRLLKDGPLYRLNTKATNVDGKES
Strand | E-score
AGGTGCGC | 0.146
CGGAGTAG | 0.0771
ATGATCAC | -0.0376
ACAAACTA | -0.18
CCCGGGAG | 0.231
GAATTCAA | -0.149
GTCCCTTA | 0.0563
AATAGTAC | -0.0969
CCTGCTAG | -0.172
AAAGTCAT | -0.194
CTCGTCAC | 0.0553
CGTGTCGA | 0.0398
TACCCAGA | -0.165
GCGGTGGA | 0.0245
TAGAAGCA | -0.285
GCAGTGTA | 0.0248
ACACCGGG | 0.212
CAAGCCTA | -0.0667
GAAGATAA | 0.0529
CGCCGGCG | 0.43

Block 4
Target: RNA binding protein fox-1 homolog 2, RRM domain, GST-SBP tag (RBFOX2, Homo sapiens, UniProt O43251-10, residues 100-194)
Technique: RNA Bind-n-Seq
Molecule type: RNA
Medium: in vitro
Tested at: 365 nM
Setting: natural RNA segment, single round, ends assumed
Reference: no-protein control
Reading: higher = stronger binding
Shared flanks, not repeated: GGGAGUUCUACAGUCCGACGAUC … UGGAAUUCUCGGGUGCCAA
Construct (chain): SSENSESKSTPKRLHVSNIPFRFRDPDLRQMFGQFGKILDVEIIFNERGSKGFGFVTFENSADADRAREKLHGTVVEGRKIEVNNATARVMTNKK
Strand | RBNS enrichment (R)
UUAGCCCCAGGCCUGGGCAGGGAUUUGGCCUUCCAGUGGAGUUUCCUGUACCCUGGUGUAGCUUUUGUGUUGAAGACACUCUUGGGUGUGCACCCUAUUCAGGUCAGGGA | 0.432
UACCCUUUUUGGCCUGAAGACAUUUUAGAAUUUCCUAACAGAGUUUACUGUUGUUUAGAAAUUUGCAAGGGCUUCUUUUCCGCAAAUGCCACCAGCAGAUUAUAAUUUUG | 0.506
CACCUGAGGCCAGCUCUGGUCAGUCUCUGAUGGUCCAUUGGGCUGGCUCAGCACAUUGACAUCACUAACUAGGGUUGGGAUAGCUUCCUACCCAGAUGACCAAAAAGCCA | 0.256
UUGAACAGGUGCCUUGGGCAUGAUGUAUAGAUGCAGUCAUAUAUACCUUGCUGGGGUGGGGUGCCACCUCCAGUGGCCAGCUCCAGAUCCAAGGAGCAGCCCCCUGGGGA | 0.285
UAACCAGGAUGCUUAUGUUCUUAAGUCUAUAUUUGCAUAUACAUUGACUCUUGAUGGAAAGACUUAAGAAGAUCAAGGUCUCACCAUUUGUCCUCAAUUCGUGUGACCAU | 0.428
AUAGCUUUUCACCAUGUGGUGUUUACCAGCUGUUACUCUGUAUUUUAAAAAGCCAGAGAUUUCUUCUGUCUAAACUGUUUCUAUAGCAUUUUCUAAACAAAAAAAAUGGU | 1.74
UACAGUGCCAAAAUGCCCCAGAGAGGCUCCAUUACUUCUGGAGCCUACAAAGCUGUUCCCUGAUGUCACAGGUCCCUCCGACUCAUUUUCCAGGAGACUUUGCCUUGAGG | 0.3
GGGGUAGCUCCUGCCUGCUCUCCCUGCGUUGCCUAGGGUAAAGCCUCCAGAUUUGCCAUACUGAGCCCCUCUUCCUAGCAUCAGGCGAUACAUCUGAGUUCAAAUGUCUU | 1.01
GGUGUGACAGCAUGACAGGUUUGCUCUGCUUCUGCAGAGUGGGCCCCAGAGGUCACUUAGGACUGAGAUGCUCCAAAGUUUGAAGUGCCAAAUAACAUGAAACGUGCUCU | 9.71
UCUCAUCCCUUUCACACUAGAUUCUCAGACAUGAAUGAAUUUGUCGUUUGGAAGGAAAGCUGGGUAACGUUUUGGGCACAGGGGAAGGAGGACUCCGGUCUUAACUCCCA | 0.282
UGAAGGGUGAGCAUAACCUUGUGAACCAGCACUAGCUUGUUCCAAGCUGGAAUUUAUCUAAUCUAUUUUUGUGUUUAAAAAAGCUGUACCUACCAAAUAAAUAAAUAGUU | 0.366
CAGUGAUACAGUAUAAAGAUAAACAGAAAUGCUGAGAUACGCUUAGCACUUGAGUUGUACAACAGAACACUUGUACAAAAUAGAUUUUAAGGCUAACUUCUUUUCACUGU | 0.412

Block 5
Target: ABI1, truncated, D143A, DHFR fusion (Arabidopsis thaliana)
Technique: DHFR PCA, deep sequencing
Medium: yeast
Setting: methotrexate growth selection, single substitutions
With: (+)-ABA 0 µM
Reference: wild-type fitted maximum
Reading: higher = stronger binding
Starting sequence: PYL1, truncated, DHFR fusion (Arabidopsis thaliana); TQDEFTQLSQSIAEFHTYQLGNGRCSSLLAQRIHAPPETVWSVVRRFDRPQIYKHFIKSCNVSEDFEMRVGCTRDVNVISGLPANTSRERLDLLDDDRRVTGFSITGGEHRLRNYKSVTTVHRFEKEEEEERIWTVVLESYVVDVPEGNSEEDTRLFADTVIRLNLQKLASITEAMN
Change | relative binding score [%]
T6D | 29.5
L169G | -3.41
F157D | 10.1
S27V | -0.574
N22L | 17.1
E14N | 7.38
Q19A | 29.9
I133H | 20.8
R155M | 6.86
H110G | 25.2
F5Y | 31.1
T101S | 0.0402
E125T | 30.3
S11V | 33.6

For quick reference, copied from above (block 4):
Strand | RBNS enrichment (R)
UACCCUUUUUGGCCUGAAGACAUUUUAGAAUUUCCUAACAGAGUUUACUGUUGUUUAGAAAUUUGCAAGGGCUUCUUUUCCGCAAAUGCCACCAGCAGAUUAUAAUUUUG | 0.506
CACCUGAGGCCAGCUCUGGUCAGUCUCUGAUGGUCCAUUGGGCUGGCUCAGCACAUUGACAUCACUAACUAGGGUUGGGAUAGCUUCCUACCCAGAUGACCAAAAAGCCA | 0.256
UUGAACAGGUGCCUUGGGCAUGAUGUAUAGAUGCAGUCAUAUAUACCUUGCUGGGGUGGGGUGCCACCUCCAGUGGCCAGCUCCAGAUCCAAGGAGCAGCCCCCUGGGGA | 0.285
UAACCAGGAUGCUUAUGUUCUUAAGUCUAUAUUUGCAUAUACAUUGACUCUUGAUGGAAAGACUUAAGAAGAUCAAGGUCUCACCAUUUGUCCUCAAUUCGUGUGACCAU | 0.428
AUAGCUUUUCACCAUGUGGUGUUUACCAGCUGUUACUCUGUAUUUUAAAAAGCCAGAGAUUUCUUCUGUCUAAACUGUUUCUAUAGCAUUUUCUAAACAAAAAAAAUGGU | 1.74
UACAGUGCCAAAAUGCCCCAGAGAGGCUCCAUUACUUCUGGAGCCUACAAAGCUGUUCCCUGAUGUCACAGGUCCCUCCGACUCAUUUUCCAGGAGACUUUGCCUUGAGG | 0.3
